# Results from different studies.
# Each line is one published result; not all experiments were run side by side. ± gives the spread as reported.
SMILES,assay,test system,conditions,remaining compound
CC[N+]1(C)CCN(c2ccc(NC(=O)c3cccc(C)n3)cc2)CC1,,pooled BALB/c mouse plasma,"1 µM, 0 min",100%
O=C(O)c1ccc(CN2CCC(CN[C@@H]3C[C@H]3c3ccccc3)CC2)cc1,,aqueous buffer,"4 days, 37 °C",98%
CC(C)=CCC[C@](C)(O[C@@H]1O[C@H](CO[C@@H]2O[C@H](CO)[C@@H](O)[C@H](O)[C@H]2O)[C@@H](O)[C@H](O)[C@H]1O)[C@H]1CC[C@]2(C)[C@@H]1[C@H](O)C[C@@H]1[C@@]3(C)CC[C@H](O[C@@H]4O[C@H](CO)[C@@H](O)[C@H](O)[C@H]4O[C@@H]4O[C@H](CO)[C@@H](O)[C@H](O)[C@H]4O)C(C)(C)[C@@H]3CC[C@]12C,,rat plasma,"5 ng/mL, 24 h, room temperature",87.5 ± 6.2%
c1ccc(-c2cc(NCCCN3CCCCC3)c3ccccc3n2)cc1,,human liver microsomes,1 h,36.6%
Cc1cc2ccccc2n1CCNC(=O)c1ccc(N2CCC(C(=O)O)CC2)cc1,,human liver microsomes,60 min,> 50%
C=CC(=O)N1CCC(C(=O)NCC(=O)N2CCN(c3nc(-c4cnc(N)nc4C(F)F)nc(N4CCOCC4)n3)CC2)CC1,,"microsomes, rat liver, male, Sprague-Dawley","1 µM, 60 min, without NADPH, 0.5 mg/mL microsomal protein",110%
CCOC(=O)[C@H](CCc1ccccc1)N[C@@H](C)C(=O)N1CCC[C@H]1C(=O)O,,mouse plasma,"10 µM, 120 min",24.6%
NC(=O)c1ccccc1NC(=O)c1ccc(-c2ccccc2)cc1,,human plasma,"2 µM, 0 h, 37 °C",100%
Cn1cncc1-c1c(F)cncc1NC(=O)c1c(N)nn2cc(F)cnc12,,human EDTA plasma,"15 ng/mL, 6 months, -80 °C, low QC",104%
Fc1ccc(N2CCNCC2COc2ccc3ccccc3c2)cc1 (stereo not drawn),,mouse liver microsomes,90 min,64 ± 2%
N#Cc1ccc(Nc2nc(N)cc(Oc3c(F)cc(-c4ccc(C#N)cc4)cc3F)n2)cc1,,monkey plasma,"1 µM, 0.50 h, pH 7.4, 37 °C",94.8%
OCc1nc2ccc(NCc3ccc(C(F)(F)F)cc3)cc2[nH]1,,human liver S9,"1 µM, 90 min, pH 7.4",> 80%
CSc1ncc(Br)c(C(=O)N[C@@H](CCC(=O)O)C(=O)N[C@@H](Cc2ccc3ccccc3c2)C(=O)N[C@@H](CC(C)C)C(=O)N[C@@H]2C[C@H]2c2ccccc2)n1,,pooled human plasma,"120 min, 37 °C",95.6%
CC(C(=O)Nc1c(F)cccc1F)N1CCN(c2ccccc2)CC1 (stereo not drawn),,human plasma,"1 µM, 4 h, 37 °C",99.8%
FC(F)=Cc1cc(C(F)(F)F)cc(C(F)(F)F)c1,HPLC-MS,HEPES buffer with 10% acetonitrile,"1 mM, 1 h, pH 7.4",96%
CNc1cc[n+](CCNC(=O)c2ccn3c(-c4c(C)noc4C)cnc3c2)cc1.[Cl-],,0.1 M HCl,"1 weeks, pH 1, room temperature",100 % peak area
CO[C@@H](C[C@H]1C(C)=CC[C@@H]2[C@]3(C)C[C@H](O[C@@H]4O[C@@H](C)[C@H](OC(=O)c5cccc(O)c5)[C@@H](O[C@@H]5O[C@H](CO)[C@@H](O)[C@H](O)[C@H]5NC(C)=O)[C@H]4O)[C@@H](O)C(C)(C)[C@H]3CC[C@]21C)[C@H](N)C(=O)O.O=C(O)C(F)(F)F,,simulated gastric fluid with pepsin,"1 µM, 240 min, pH 1.2",103%
CC(C)[N+](C)(CCOC(=O)C1c2ccccc2Oc2ccccc21)C(C)C,,CD-1 mouse whole blood,"5 µM, 0 min",100%
COc1ccc2cc3[n+](cc2c1OC)CCc1cc2c(cc1-3)OCO2,,human liver microsomes,"10 µM, 30 min, pH 7.4, together with: microsomes 0.5 mg/mL",78.9 ± 2.7%
N=C(N)Nc1cccc(C(=O)NCC(=O)NC[C@H](NC(=O)c2c(Cl)cc(-c3ccccc3)cc2Cl)C(=O)O)c1,,mouse liver microsomes,45 min,93%
CCOc1ccc2ccc(=O)oc2c1,,human liver microsomes,"1 µM, 20 min, pH 7.4",26.3%
